Results pooled from the literature.
Each line is one published result; not all experiments were run side by side.

SMILES	test	system	conditions	endpoint	value
O=C(Nc1nc2cccc(-c3ccc(CN4CCS(=O)(=O)CC4)cc3)n2n1)C1CC1	population PK model estimate	human	oral, dose not given	apparent central volume	104 L
NC[C@@]1(CC(=O)O)[C@@H]2CC[C@H]3C[C@@H]2[C@@H]1C3	–	human, moderate renal impairment, plasma	oral, 20 mg single dose, geometric mean	apparent clearance	5.1 L/h
CNC(=O)c1ccc(N2C(=S)N(c3ccc(C#N)c(C(F)(F)F)c3)C(=O)C2(C)C)cc1F	population PK final model	human, male	oral	apparent intercompartmental clearance	20.6 L/h
Cc1nc(Nc2ncc(C(=O)Nc3c(C)cccc3Cl)s2)cc(N2CCN(CCO)CC2)n1	–	human patients, plasma	oral, dose not given, day 8, median of combined dose levels	apparent oral clearance	1980 mL/min/m²
COc1cc(C(=O)NC2CCN(C)CC2)c(F)cc1Nc1ncc(C(F)(F)F)c(Oc2cccc3c2C(=O)N(C)C3)n1	–	human patients, plasma	oral, 300 mg single dose, geometric mean	apparent oral clearance CL/F	98.6 mL/min
C=CC(=O)N(C)CCOc1c(N)ncnc1-c1cc(F)cc(NC(=O)c2ccc(C3CC3)cc2F)c1C	–	human, whole blood	oral, 200 mg, single ascending dose	apparent clearance CL/F	343 L/h
NC(=O)N1c2ccccc2CC(=O)c2ccccc21	population PK modelling	human patients, plasma	oral, dose not given, weight-scaled, no back-conversion	apparent volume of distribution	20 L
C[C@@H](Oc1ccc(S(C)(=O)=O)cc1C(=O)N1C[C@@H]2C[C@]2(c2cc(C(F)(F)F)on2)C1)C(F)(F)F	–	young healthy humans, plasma	oral, 50 mg once daily, multiple dosing	apparent clearance at steady state	114 mL/min
C[C@H](Cn1cnc2c(N)ncnc21)OCP(=O)(O)O	population PK model	human, plasma	oral, dose not given, simultaneous model estimate	apparent volume of distribution	2380 L
C[C@@]1(c2cc(NC(=O)c3ccc(C#N)cn3)ccc2F)C=CSC(N)=N1	–	elderly humans, both sexes, plasma	oral, 90 mg single dose, mean	apparent clearance CL/F	10.4 L/h
Cl.[2H]C([2H])([2H])CC(=O)c1cnc(NC(=O)C2CC2)cc1Nc1cccc(-c2ncn(C([2H])([2H])[2H])n2)c1OC	–	human, non-fasted	oral, 30 mg twice daily, day 14, multiple dose, tablet, geometric mean	apparent volume at steady state	175 L
Cn1cc(-c2cn3nccc3c(-c3cnn([C@]4(CC#N)C[C@@H](C#N)C4)c3)n2)cn1	–	healthy humans fasted, plasma	3 mg single dose, geometric mean	apparent clearance CL/F	63 L/h
O=C(O)CCC(=O)O.[2H]C([2H])([2H])Oc1cc(C)c2[nH]ccc2c1CN1CC[C@@H](C2CC2)C[C@H]1c1ccc(C(=O)O)cc1	–	healthy humans, fasted, plasma	oral, 200 mg, single dose	apparent clearance (CL/F)	1.61 L/h
